Measurements from different studies.
Numbered parts are unrelated; each lists some results of a single study. Positions count from the first letter of the parent shown.

Set 1
Target: ABI1, truncated, D143A, DHFR fusion (Arabidopsis thaliana)
Technique: DHFR PCA, deep sequencing
Matrix: yeast
Notes: methotrexate growth selection, single substitutions
With: (+)-ABA 200 µM
Reference: wild-type fitted maximum
Direction: higher = stronger binding
Starting sequence: PYL1, truncated, DHFR fusion (Arabidopsis thaliana); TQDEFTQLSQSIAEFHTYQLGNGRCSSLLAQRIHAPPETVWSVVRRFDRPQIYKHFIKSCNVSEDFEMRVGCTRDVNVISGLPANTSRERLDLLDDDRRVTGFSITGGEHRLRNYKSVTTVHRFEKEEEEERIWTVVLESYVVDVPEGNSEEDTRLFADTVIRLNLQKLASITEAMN
Substitution	relative binding score
A84T	31.3%
D95V	52.8%
S11Y	101%
G81I	24.3%
I162S	12.6%
H34V	94.3%

Set 2
Target: RING finger protein unkempt homolog, zinc fingers 1-6, GST-SBP tag (UNK, Homo sapiens, UniProt Q9C0B0, residues 30-357)
Chain of UniProt Q9C0B0 (30-357, looked up): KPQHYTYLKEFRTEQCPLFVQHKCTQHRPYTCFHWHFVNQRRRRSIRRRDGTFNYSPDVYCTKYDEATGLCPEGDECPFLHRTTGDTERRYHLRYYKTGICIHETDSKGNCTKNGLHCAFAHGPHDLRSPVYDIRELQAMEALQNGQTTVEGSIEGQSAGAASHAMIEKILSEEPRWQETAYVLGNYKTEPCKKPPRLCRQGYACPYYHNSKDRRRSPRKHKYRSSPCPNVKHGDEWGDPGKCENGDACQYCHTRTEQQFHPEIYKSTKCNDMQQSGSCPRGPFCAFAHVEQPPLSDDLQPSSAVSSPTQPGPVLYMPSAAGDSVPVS
Technique: RNA Bind-n-Seq
Molecule type: RNA
Matrix: in vitro
Concentration: not given
Notes: RNA with constant flanks, human and mouse sites, ends assumed
Reference: input RNA pool
Direction: higher = stronger binding
Constant ends, left off below: GGGAGUUCUACAGUCCGACGAUC … CAACAGAGGAUUGAGCAUCA
Oligonucleotide	bound/input enrichment
AGUGGUGCCACCUACCCCAACAUCCCCCUCUCUUCUCCCUUGCCUGGAGUACCCAAGCCUAUUUUUGCAACAGUUGAUGGACAGGAAAAGUUUGAAACCAAAGUUACCACUCUGGACAAU	0.573 ratio
AAUUUUUUUGGUAUUUUUUUAAACGUUCGUGGAUGAAUGCCAACUUUCAGACGGAGCCCACUUAGCUUGUCCACAUGUAUCUCAAUGCCAACCCUCCAUUUUUCCUCUCCAGAUAUUUUU	2 ratio
CUCACCUUCCUCCGAAUGUCCACGCACAAGGAAUCCAAAGACCACUUCAUUUCUCCAUCUGCAUUUGGAGAAAUCCUCUACAACAACUUCCUCUUUGACAUCCCGAAGAUCCUGGACCUC	0.208 ratio
ACUGUAGAACAGCUUUAUGAAACAGCUUGCUUCCUACAGGUAGAAGAUGUGUUACAACGUUGUCGAGAAUAUUUAAUUAAAAAAAUAAAUGCAGAGAAUUGUGUACGAUUGUUGAGUUUU	0.653 ratio
GUAGAUUGCAUUUCGGCUUUUCCUCCUUUCACAUUCUUUUUUGCUUUACACUUCACGUCUUCGCACCUGCCCUACCUCCCAUCCUUUCAAAGAGGUUUCUUUCACGUUCCAGAAUUCAGA	0.415 ratio

Set 3
Target: CCNE2, cyclin fold, Cln2 fusion (human)
Technique: yeast growth competition, sequencing
Matrix: yeast
Notes: weak parent motif
Reference: not given
Direction: higher = stronger binding
Starting sequence: CDC6 docking peptide (human); TLKGRRLVFDNQL
Substitution	normalised enrichment score
F9M	-0.0532
V8H	0.166
G4R	1.58
R5P	-0.7
V8I	0.574
K3N	0.487

Mixed results
Molecule	target	assay	system	setting	how to read	endpoint	result
PhoQ, residues 284 288 289 292 302 303 SSTLSG	PhoP, residues 12 14 15 18 19 LHSVW (Escherichia coli, UniProt P23836)	Sort-seq, refers to: YFP reporter	E. coli	PhoQ-PhoP variant library, with: 10 µM Mg2+	reference: high Mg2+ state, higher = stronger signaling	fold induction	2.83

Some of these lines once more (set 1):
Substitution	relative binding score
A84T	31.3%
